Published values gathered from unrelated publications.
Numbered parts are unrelated; each lists some results of a single study. Changes are numbered by the printed parent chain.

Sample 1 — method: protein-binding microarray; molecule type: double-stranded DNA, one strand shown; matrix: in vitro; concentration: 2200 nM top; notes: 60-bp whole probe; with: salmon DNA 0.4 mg/ml; relative to: random background probes; reading: higher = stronger binding; shared flanks, not repeated: GCCTAGCAC … GTCTTGATTCGCTTGACGCTGCTG
Target: Interferon regulatory factor 7, full length, phosphomimetic (IRF7, Homo sapiens, UniProt Q92985, residues 1-503, S471D/S472D/S475D/S476D/S477D/S483D/S484D/S487D)
UniProt Q92985, sequence (whole entry, unmodified, looked up): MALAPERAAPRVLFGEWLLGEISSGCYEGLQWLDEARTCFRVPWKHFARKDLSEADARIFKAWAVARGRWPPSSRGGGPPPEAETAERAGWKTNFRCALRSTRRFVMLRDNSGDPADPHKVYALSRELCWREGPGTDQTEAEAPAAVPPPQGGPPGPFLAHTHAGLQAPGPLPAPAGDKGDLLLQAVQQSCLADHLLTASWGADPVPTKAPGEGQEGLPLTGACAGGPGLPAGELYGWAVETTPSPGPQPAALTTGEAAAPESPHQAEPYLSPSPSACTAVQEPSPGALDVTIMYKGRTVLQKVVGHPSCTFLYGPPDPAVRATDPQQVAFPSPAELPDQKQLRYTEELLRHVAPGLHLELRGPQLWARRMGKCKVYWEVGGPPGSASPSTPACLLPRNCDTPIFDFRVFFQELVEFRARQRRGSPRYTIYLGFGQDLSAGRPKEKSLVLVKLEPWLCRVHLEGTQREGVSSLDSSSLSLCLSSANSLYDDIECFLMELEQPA
| Sequence | fitted relative affinity [z-score] |
| --- | --- |
| CTGCACTCCAGTCTGGGAGAGTGCTAG | -0.0577 |
| TTAGGTATCGACTTTTGGTTAGTGCTA | 0.691 |
| GACGAACTGGGGGCTGGAGACGTGCTA | 0.531 |
| TTAGGAGTGGACTATCGGTTAGTGCTA | -0.298 |
| TTAGGTTTCCTTATCCTATAGTGCTAG | 2.27 |
| GTGCCCGCTGCTTCCGGTGCGTGCTAG | 0.416 |
| ATTGCTTCCTCTTTCACTGCGTGCTAG | 3.36 |
| TTGGGTCTCCTTTTCCTTTAGTGCTAG | 1.79 |
| TCAAGTTTCCATTTTCTACTGTGCTAG | 5.19 |
| TTAGGTATCATTATCCTTTAGTGCTAG | 0.59 |
| GACGGACTGGGGACTGGGGTCGTGCTA | -0.632 |
| GACGATTTCGACTATCGGGACGTGCTA | 1.73 |
| TTAGATATCGGGTCTCGATTAGTGCTA | 0.365 |

Sample 2 — method: RNA Bind-n-Seq; molecule type: RNA; matrix: in vitro; concentration: 365 nM; relative to: no-protein control; reading: higher = stronger binding
Target: RNA binding protein fox-1 homolog 2, RRM domain, GST-SBP tag (RBFOX2, Homo sapiens, UniProt O43251-10, residues 100-194)
Notes: natural RNA segment, single round, ends assumed
Shared flanks, not repeated: GGGAGUUCUACAGUCCGACGAUC … UGGAAUUCUCGGGUGCCAA
Construct (chain): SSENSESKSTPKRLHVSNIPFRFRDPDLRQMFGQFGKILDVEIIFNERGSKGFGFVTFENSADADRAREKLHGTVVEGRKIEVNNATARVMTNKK
| Sequence | RBNS enrichment (R) |
| --- | --- |
| AGCCAUUGAAAGCUCAUUACCAGUAGGACAUAAUUUUUGGCUCUCCCUAUUCACAACCAGUGCACAGUUUGACACAGUGGCCUCAGGUUCACAGUGCACCAUGUCACUGU | 0.236 |
| CCUCUGCCUGGCCUGUUCCUGUCCCUGUCUUCCUACCUCUAUAGCAAGCCCAAAGUGUCUUUUCAGGAGGGCCAGUAGCCCCCAGGCUGCUGCCCACAUUAGCACAGUUU | 0.303 |
| CGGUAAUAAGAGCUGGCAAGUAAGGCUCAGAGAGAAGCAACCAACUGGAGUUAAUUGCCCAUUUGGGCUCUUUGUAUAAUUAUGGCAAAGUAGACAUUUAUGUUCUAAUU | 0.504 |
| GUUGAGUUGGGGGCUUGCUUAUAGUUUCAGAGUUGAGUUUAUUUGCAUGGUGUCAGGCAGGCAGGAUGGUGCCGGAGAAGUAGCUGAGAGAUACAUCCUGAUCUACAGGC | 3.27 |
| UGAGCCCCUUACAGAUAAGCACCGGUGUCUCUUUGGUGCACCUUGCCUUCAGAUGCUCCUGGUGGUCAGCUCAACUAGCAAGACCCUAGUCCCCUGUUCCAAAGCCAUCU | 0.25 |
| AGAGAUGACUCACUCACUCCGUGUGUUCUACAGUGCUGAGGUGGAUGACCUGGCCUACAGCAAAGGACCUUGAGCUUUAAAGUAUCACCUCCAUGGAAGCGGGGGCAUGC | 2.88 |
| GCAAACAUAAAUGUAAAUACACUGAUUUAUUCUGUUACUAGAUCAGGUUUUAGGGUCCUGCAAAAGGCUAGCUCGGCACUACACUAGGGAAUUUGCUCCUGUUCUGUCAC | 0.488 |
| CCUGAGAAACUUGUAACCUAUGUGCCUCAAUAUAUUCCAUAGAAAGUAGGUCCCCCUGCCUUCUCCCACUCCUCACACUCUUCUACAGGGAUAGGCUUUUGCAAAUAUAU | 0.606 |

Sample 3 — method: RNA Bind-n-Seq; molecule type: RNA; matrix: in vitro; concentration: 1 µM; notes: whole 134-nt RNA, ends assumed; with: 150 mM KCl; relative to: input library; reading: higher = stronger binding
Target: Ras GTPase-activating protein-binding protein 1, RRM domain (G3BP1, Homo sapiens, UniProt Q13283)
UniProt Q13283, sequence (whole entry, looked up): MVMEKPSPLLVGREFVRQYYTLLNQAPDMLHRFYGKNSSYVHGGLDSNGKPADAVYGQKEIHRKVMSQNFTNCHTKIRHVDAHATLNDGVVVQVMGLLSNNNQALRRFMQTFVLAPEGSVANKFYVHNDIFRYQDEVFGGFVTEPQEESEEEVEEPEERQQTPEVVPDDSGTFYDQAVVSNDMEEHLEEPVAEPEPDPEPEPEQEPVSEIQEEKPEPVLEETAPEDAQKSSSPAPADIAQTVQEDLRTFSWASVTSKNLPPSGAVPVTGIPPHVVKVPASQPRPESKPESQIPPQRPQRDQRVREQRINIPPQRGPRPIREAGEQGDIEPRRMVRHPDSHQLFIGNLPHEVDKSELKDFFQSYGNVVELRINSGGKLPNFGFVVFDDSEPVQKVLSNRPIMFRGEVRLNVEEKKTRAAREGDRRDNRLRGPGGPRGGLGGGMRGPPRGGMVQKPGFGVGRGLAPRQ
Shared flanks, not repeated: GGGAGUUCUACAGUCCGACGAUC … UGGAAUUCUCGGGUGUCAAGG
| Sequence | log2 enrichment |
| --- | --- |
| AGUCCUGUGCUACACAUCGUAUGUACCGAAUCGGAAAAAGGAAAAAGGGAAAAAGGGGAAAGUAUUAUGUUACGCCGUUCGGAUCUGCAC | -0.135 |
| AGUCCUGUGCUACACAUCGUAUGUACCGAAUCGGGAAAAAGGAAAAAGGAAAAAGGGGAAAGUAUUAUGUUACGCCGUUCGGAUCUGCAC | 0.000119 |
| UCAAGUCCUGUGCUACACAUCGUAUGUACCGAAUCGGAAAGGAAAAAAAGGUGGAAAGUAUUAUGUUACGCCGUUCGGAUCUGCACUUCC | -0.151 |
| UAACUUUAGAGGAGGAUCUGAUGGAUAUGGCAGUGGACGUGGAUUUGGGGAUGGCUAUAAUGGCUAUGGAGGAGGACCUGGAGGUGGCAA | -0.366 |
| AGUCCUGUGCUACACAUCGUAUGUACCGAAUCGGGGAAAAAAAGGGGAGGGGAGGGGAAAGUAUUAUGUUACGCCGUUCGGAUCUGCACU | 0.868 |
| CACAGACAACACGCACCCACACAGACAGAGAGGGAAGGGGUUGGGAUGGGGACAGGGUGCACAGCAGGGCGGGGUAGGACCCCAGCCCCU | -0.0301 |

Sample 4 — method: DHFR PCA, deep sequencing; matrix: yeast; with: (+)-ABA 0.0091 µM; relative to: wild-type fitted maximum; reading: higher = stronger binding
Target: ABI1, truncated, D143A, DHFR fusion (Arabidopsis thaliana)
Notes: methotrexate growth selection, single substitutions
Starting sequence: PYL1, truncated, DHFR fusion (Arabidopsis thaliana); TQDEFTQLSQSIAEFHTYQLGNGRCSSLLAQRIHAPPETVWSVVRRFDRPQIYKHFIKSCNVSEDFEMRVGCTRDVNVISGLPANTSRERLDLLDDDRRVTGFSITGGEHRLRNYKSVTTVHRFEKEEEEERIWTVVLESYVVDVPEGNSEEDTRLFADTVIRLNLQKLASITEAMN; partner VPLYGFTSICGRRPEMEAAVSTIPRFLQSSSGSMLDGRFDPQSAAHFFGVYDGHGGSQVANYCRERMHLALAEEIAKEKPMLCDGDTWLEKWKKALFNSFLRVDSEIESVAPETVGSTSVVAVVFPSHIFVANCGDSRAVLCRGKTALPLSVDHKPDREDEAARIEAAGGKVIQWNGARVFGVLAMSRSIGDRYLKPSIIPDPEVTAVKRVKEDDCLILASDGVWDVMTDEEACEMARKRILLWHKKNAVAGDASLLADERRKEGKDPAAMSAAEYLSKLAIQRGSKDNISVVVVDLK
| Substitution | relative binding score [%] |
| --- | --- |
| L112P | 3.61 |
| R111I | 9.35 |
| E139M | 1.17 |
| R24M | 12.5 |
| K116N | 4.74 |
| R32Y | 17.9 |
| T119P | -7.56 |
| S171N | 31.8 |
| Q51S | -8.85 |
| S59C | -1.17 |
| P36C | 5.65 |
| S117W | -1.43 |
| G107K | 4.82 |
| A84M | 59.8 |
| C72H | 1.55 |
| E130M | 14.3 |
| N177V | 42.7 |

For quick reference, copied from above (sample 4):
| Substitution | relative binding score [%] |
| --- | --- |
| R24M | 12.5 |
| L112P | 3.61 |
| E130M | 14.3 |
| S59C | -1.17 |
| R111I | 9.35 |
| S171N | 31.8 |
| N177V | 42.7 |
